Measurements of several laboratories.
Every numbered part comes from another study and shows a few of its results, in no order. Values joined by “and” are separate records of one study, mostly repeats; a detail may differ.
Chain of UniProt P05771 (whole entry, looked up): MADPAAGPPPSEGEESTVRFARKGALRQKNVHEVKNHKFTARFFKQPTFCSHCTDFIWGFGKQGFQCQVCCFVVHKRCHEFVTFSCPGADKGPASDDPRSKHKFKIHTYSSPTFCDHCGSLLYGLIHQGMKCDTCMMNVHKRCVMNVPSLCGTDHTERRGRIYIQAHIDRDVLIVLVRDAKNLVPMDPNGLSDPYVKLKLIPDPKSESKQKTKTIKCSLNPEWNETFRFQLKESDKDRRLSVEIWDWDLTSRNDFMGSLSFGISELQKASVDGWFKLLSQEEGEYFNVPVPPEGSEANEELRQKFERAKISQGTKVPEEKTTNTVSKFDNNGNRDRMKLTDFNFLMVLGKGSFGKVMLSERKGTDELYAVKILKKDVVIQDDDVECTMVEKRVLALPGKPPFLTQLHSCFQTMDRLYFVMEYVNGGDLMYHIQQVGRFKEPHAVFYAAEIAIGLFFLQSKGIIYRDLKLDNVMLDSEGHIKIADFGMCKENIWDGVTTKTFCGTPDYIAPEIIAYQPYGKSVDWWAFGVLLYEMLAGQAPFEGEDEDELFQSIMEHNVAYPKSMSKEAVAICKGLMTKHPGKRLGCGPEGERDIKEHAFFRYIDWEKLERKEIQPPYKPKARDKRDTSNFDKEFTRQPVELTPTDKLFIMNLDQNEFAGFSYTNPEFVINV
Chain of UniProt P08588 (whole entry, looked up): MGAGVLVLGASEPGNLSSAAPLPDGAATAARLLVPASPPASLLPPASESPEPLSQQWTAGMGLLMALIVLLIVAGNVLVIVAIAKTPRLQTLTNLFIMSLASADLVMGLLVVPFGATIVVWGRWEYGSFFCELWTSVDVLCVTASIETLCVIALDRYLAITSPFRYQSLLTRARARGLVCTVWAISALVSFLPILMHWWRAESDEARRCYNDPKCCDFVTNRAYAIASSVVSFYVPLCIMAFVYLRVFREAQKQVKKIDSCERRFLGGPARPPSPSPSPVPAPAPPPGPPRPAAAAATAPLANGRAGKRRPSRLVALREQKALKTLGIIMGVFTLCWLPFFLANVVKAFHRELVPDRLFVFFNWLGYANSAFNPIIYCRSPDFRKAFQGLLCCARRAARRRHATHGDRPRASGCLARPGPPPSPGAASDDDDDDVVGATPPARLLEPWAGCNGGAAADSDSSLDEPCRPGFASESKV
Chain of UniProt P21917 (whole entry, looked up): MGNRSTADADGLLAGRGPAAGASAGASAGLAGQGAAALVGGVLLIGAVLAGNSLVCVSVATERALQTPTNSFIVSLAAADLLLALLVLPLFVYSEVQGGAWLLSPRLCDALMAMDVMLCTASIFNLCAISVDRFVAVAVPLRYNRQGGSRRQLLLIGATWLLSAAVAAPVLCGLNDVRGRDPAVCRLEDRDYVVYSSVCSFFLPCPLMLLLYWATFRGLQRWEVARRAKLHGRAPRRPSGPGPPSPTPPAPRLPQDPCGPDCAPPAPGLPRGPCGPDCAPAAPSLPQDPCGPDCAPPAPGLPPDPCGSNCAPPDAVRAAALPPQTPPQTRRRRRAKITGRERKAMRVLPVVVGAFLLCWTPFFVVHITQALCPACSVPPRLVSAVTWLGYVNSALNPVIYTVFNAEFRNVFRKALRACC
Chain of UniProt P35626 (whole entry, looked up): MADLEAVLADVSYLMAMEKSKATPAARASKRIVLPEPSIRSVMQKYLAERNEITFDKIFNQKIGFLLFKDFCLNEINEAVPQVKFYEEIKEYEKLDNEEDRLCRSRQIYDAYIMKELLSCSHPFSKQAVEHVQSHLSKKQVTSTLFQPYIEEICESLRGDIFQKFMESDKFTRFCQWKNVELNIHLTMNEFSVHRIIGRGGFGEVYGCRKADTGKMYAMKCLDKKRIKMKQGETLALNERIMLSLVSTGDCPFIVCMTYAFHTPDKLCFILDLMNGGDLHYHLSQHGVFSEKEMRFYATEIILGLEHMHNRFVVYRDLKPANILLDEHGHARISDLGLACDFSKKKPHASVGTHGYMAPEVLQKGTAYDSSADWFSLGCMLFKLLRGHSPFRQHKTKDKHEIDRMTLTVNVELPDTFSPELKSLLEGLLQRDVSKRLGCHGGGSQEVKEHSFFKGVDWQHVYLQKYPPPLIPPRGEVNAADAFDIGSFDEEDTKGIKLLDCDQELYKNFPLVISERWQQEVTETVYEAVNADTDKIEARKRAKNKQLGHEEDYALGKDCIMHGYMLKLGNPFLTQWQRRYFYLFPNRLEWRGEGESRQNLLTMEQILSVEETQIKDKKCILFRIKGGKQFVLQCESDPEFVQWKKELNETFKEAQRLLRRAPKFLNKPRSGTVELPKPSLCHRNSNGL
Chain of UniProt Q99720 (whole entry, looked up): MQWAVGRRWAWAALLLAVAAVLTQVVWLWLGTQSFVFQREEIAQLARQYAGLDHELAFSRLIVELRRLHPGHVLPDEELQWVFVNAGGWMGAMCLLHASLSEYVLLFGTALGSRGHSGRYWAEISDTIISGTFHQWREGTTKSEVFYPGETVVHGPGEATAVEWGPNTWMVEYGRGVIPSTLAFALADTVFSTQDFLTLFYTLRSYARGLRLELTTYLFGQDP

Block 1 — observed: enzyme activity; mode: inhibitor; concentration: 77 µM; relative to: untreated; quantity: remaining activity
Target: DNA polymerase theta, ATPase domain (POLQ, Homo sapiens, UniProt O75417)
Chain of UniProt O75417 (whole entry, unmodified, looked up): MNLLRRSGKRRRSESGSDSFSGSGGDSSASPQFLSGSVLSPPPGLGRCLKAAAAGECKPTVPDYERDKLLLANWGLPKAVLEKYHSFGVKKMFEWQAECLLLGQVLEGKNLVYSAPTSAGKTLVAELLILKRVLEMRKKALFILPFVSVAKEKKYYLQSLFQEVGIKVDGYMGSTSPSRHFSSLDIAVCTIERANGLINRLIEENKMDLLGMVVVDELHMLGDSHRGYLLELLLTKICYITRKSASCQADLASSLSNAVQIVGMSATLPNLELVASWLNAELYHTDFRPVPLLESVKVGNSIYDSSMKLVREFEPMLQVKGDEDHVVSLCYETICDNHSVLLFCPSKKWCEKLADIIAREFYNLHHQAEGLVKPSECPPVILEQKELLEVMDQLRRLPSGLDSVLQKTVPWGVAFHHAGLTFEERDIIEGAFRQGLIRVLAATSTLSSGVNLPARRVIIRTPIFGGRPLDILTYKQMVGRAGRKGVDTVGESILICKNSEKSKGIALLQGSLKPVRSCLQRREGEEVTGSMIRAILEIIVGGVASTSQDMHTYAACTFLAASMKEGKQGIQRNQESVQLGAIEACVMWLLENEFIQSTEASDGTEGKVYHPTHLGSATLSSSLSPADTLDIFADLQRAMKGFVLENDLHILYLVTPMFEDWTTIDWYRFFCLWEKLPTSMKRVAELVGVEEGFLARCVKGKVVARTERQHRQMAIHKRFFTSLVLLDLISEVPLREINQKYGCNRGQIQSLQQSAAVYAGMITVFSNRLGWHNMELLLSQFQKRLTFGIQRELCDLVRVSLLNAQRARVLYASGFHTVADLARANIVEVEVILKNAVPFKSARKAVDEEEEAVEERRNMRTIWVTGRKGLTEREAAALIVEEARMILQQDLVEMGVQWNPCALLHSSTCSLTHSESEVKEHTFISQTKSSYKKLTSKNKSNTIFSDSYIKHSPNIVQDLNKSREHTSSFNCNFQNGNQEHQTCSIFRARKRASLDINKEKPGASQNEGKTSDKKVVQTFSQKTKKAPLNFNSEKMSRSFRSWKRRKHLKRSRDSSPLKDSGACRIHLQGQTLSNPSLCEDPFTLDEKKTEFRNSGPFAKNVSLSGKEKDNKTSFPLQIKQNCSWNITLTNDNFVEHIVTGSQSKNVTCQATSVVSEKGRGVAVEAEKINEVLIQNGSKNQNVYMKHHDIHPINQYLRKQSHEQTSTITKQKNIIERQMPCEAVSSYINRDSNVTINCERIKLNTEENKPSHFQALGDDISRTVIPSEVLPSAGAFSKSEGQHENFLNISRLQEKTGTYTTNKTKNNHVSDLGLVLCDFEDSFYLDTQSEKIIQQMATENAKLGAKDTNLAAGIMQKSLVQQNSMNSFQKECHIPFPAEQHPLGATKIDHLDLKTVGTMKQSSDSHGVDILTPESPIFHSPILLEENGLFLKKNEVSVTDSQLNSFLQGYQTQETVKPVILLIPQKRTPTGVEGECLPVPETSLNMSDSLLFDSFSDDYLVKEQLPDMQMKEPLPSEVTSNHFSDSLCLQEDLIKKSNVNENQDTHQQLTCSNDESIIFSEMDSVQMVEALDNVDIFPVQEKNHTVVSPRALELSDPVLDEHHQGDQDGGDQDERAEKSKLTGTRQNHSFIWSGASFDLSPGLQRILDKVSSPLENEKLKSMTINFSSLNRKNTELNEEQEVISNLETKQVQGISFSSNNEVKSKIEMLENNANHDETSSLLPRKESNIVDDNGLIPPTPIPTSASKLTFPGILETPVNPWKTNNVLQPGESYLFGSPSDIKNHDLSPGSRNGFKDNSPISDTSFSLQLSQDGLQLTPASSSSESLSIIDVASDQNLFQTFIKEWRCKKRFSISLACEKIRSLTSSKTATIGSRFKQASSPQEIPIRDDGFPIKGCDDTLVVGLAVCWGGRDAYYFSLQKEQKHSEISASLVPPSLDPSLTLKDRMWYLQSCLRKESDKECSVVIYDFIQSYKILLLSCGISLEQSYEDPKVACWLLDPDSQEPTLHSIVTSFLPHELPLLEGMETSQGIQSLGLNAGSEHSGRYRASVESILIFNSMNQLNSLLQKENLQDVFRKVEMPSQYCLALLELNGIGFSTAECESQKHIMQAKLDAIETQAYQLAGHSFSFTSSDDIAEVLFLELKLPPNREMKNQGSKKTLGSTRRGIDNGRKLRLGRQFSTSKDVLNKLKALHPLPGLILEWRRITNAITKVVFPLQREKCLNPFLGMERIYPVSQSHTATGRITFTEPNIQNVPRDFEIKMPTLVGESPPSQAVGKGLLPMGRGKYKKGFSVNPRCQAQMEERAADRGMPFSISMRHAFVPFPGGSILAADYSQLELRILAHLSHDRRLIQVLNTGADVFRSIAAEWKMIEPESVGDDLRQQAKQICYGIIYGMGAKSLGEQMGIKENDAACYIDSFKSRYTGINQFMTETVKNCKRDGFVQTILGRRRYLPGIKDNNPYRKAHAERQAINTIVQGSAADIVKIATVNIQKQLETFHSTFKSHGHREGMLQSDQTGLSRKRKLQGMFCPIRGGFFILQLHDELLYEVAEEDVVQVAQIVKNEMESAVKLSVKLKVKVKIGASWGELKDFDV
NCCS(=O)O: 112%
COc1ccc(-c2ccc3cc(C(=O)O)ccc3c2)cc1[C@]12C[C@H]3C[C@H](C[C@H](C3)C1)C2: 103%
Cc1cc(C)cc(NC(=O)Cc2ccc(OC(C)(C)C(=O)O)cc2)c1: 95.1%
COC(=O)C1=CO[C@@H](C)[C@H]2CN3CCc4c([nH]c5ccccc45)[C@@H]3C[C@H]12: 101%
CCOC1O[C@H]([C@@H](COCc2ccccc2)OCc2ccccc2)[C@H](OCc2ccccc2)[C@H]1O (stereo partly drawn): 104%
N[C@@H](COP(=O)(O)O)C(=O)O: 101%
O=C(O)c1ccccc1: 91.8%
O=C(O)CCCC[C@@H]1SC[C@@H]2NC(=O)N[C@@H]21: 95.2% and 107%
NC(=O)NC1NC(=O)NC1=O (stereo not drawn): 89.9%
CN1CCc2c(c3ccccc3n2Cc2ccc(C(=O)NO)cc2)C1: 85.1% and 94.8%
NS(=O)(=O)c1cc2c(cc1C(F)(F)F)NCNS2(=O)=O: 100%
CCCCCCCCCCCC[N+](C)(C)CCOc1ccccc1: 94.3%
O=C(c1ccc(OCCCc2c[nH]cn2)cc1)C1CC1: 101%

Block 2 — cell line: A-375; concentration: 100 µM; time: 18 h; quantity: viability
COC(=O)Nc1nc2ccc(Sc3ccccc3)cc2[nH]1: 51.2%
Cc1c(Nc2ncccc2C(=O)O)cccc1C(F)(F)F: 86.2%
C[C@@H]1CN(c2c(F)c(N)c3c(=O)c(C(=O)O)cn(C4CC4)c3c2F)C[C@H](C)N1: 86.2%
Clc1ccc(C(c2ccccc2Cl)C(Cl)Cl)cc1 (stereo not drawn): 8.3%
COC(=O)C1=C(C)NC(C)=C(C(=O)O[C@@H]2CCCN(Cc3ccccc3)C2)[C@@H]1c1cccc([N+](=O)[O-])c1 (racemic): 39.3%
CC[C@H]1OC(=O)[C@H](C)[C@@H](O[C@H]2C[C@@](C)(OC)[C@@H](O)[C@H](C)O2)[C@H](C)[C@@H](O[C@@H]2O[C@H](C)C[C@H](N(C)C)[C@H]2O)[C@](C)(O)C[C@@H](C)CN(C)[C@H](C)[C@@H](O)[C@]1(C)O: 89%
O=C(NC[C@H]1CN(c2ccc(N3CCOCC3=O)cc2)C(=O)O1)c1ccc(Cl)s1: 91.8%
C/C(O)=C(\C#N)C(=O)Nc1ccc(C(F)(F)F)cc1: 74.1%
CCOC(=O)C1=C(C)NC(C)=C(C(=O)OC)C1c1cccc(Cl)c1Cl (stereo not drawn): 9.45%
CNCCC=C1c2ccccc2CCc2ccccc21: 7.66%
C[C@]12CCC(=O)C=C1C=C[C@@H]1[C@@H]2CC[C@@]2(C)[C@H]1CC[C@@]21CCC(=O)O1: 87.5%

Block 3 — observed: cell-free assay; concentration: 10 µM; quantity: inhibition
SMILES: CN(c1ccnc(CNc2nc(Nc3ccc4c(c3)CC(=O)N4)ncc2C(F)(F)F)n1)S(C)(=O)=O
Muscarinic acetylcholine receptor M4 (CHRM4, Homo sapiens, UniProt P08173): 8.94%
5-hydroxytryptamine receptor 6 (HTR6, Homo sapiens, UniProt P50406): 11.1%
D(1A) dopamine receptor (DRD1, Homo sapiens, UniProt P21728): 0.76%
Histamine H2 receptor (HRH2, Homo sapiens, UniProt P25021): 1.75%
Beta-3 adrenergic receptor (ADRB3, Homo sapiens, UniProt P13945): 1.64%
5-hydroxytryptamine receptor 7 (HTR7, Homo sapiens, UniProt P34969): -4.55%
Sigma non-opioid intracellular receptor 1 (SIGMAR1, Homo sapiens, UniProt Q99720): 23.1%
D(2) dopamine receptor (DRD2, Homo sapiens, UniProt P14416): 9.12%
Muscarinic acetylcholine receptor M5 (CHRM5, Homo sapiens, UniProt P08912): -6.47%
Alpha-1D adrenergic receptor (ADRA1D, Homo sapiens, UniProt P25100): 15.9%
Histamine H4 receptor (HRH4, Homo sapiens, UniProt Q9H3N8): -22.6%
Alpha-1B adrenergic receptor (ADRA1B, Homo sapiens, UniProt P35368): 0.5%
Beta-1 adrenergic receptor (ADRB1, Homo sapiens, UniProt P08588): 16.4%
Alpha-1A adrenergic receptor (ADRA1A, Homo sapiens, UniProt P35348): -3.55%
Muscarinic acetylcholine receptor M2 (CHRM2, Homo sapiens, UniProt P08172): -2.08%
D(4) dopamine receptor (DRD4, Homo sapiens, UniProt P21917): 2.34%
Histamine H3 receptor (HRH3, Homo sapiens, UniProt Q9Y5N1): 12.9%
D(3) dopamine receptor (DRD3, Homo sapiens, UniProt P35462): -11.8%

Block 4 — concentration: 5 µM; quantity: remaining activity
Structure (SMILES): O=C(Nc1cnn(-c2csc(C(=O)NC3COC3)c2)c1)Nc1c(F)cccc1Cl
Protein kinase C beta type, isoform beta-I (PRKCB, Homo sapiens, UniProt P05771); kinase activity, kinase panel profiling: 100%
Cyclin-dependent kinase 18, with cyclin Y (CDK18, Homo sapiens, UniProt Q07002); enzyme activity, inhibitor: 91.9%
Cyclin-dependent kinase 4, with cyclin D3 (CDK4, Homo sapiens, UniProt P11802); enzyme activity; relative to: untreated control: 78.3%
Macrophage-stimulating protein receptor (MST1R, Homo sapiens, UniProt Q04912); enzyme activity; relative to: untreated control: 96.9%
G protein-coupled receptor kinase 3 (GRK3, Homo sapiens, UniProt P35626); enzyme activity; relative to: untreated control: 100%
G protein-coupled receptor kinase 6 (GRK6, Homo sapiens, UniProt P43250); enzyme activity; relative to: untreated control: 98%
Protein kinase C beta type, isoform beta-II (PRKCB, Homo sapiens, UniProt P05771); kinase activity, kinase panel profiling: 99%
Myosin-IIIa (MYO3A, Homo sapiens, UniProt Q8NEV4); enzyme activity; relative to: untreated control: 75.8%
Cyclin-dependent kinase 2, with cyclin E (CDK2, Homo sapiens, UniProt P24941); enzyme activity; relative to: untreated control: 93.3%
Myosin-IIIb (MYO3B, Homo sapiens, UniProt Q8WXR4); enzyme activity, inhibitor: 95.6%
Inhibitor of nuclear factor kappa-B kinase subunit beta (IKBKB, Homo sapiens, UniProt O14920); enzyme activity; relative to: untreated control: 94.1%
Dual specificity protein kinase CLK1 (CLK1, Homo sapiens, UniProt P49759); enzyme activity; relative to: untreated control: 74.2%
